Measurements from different studies.
Numbered parts are unrelated; each lists some results of a single study. Changes are numbered by the printed parent chain.

Study 1
Target: Ras GTPase-activating protein-binding protein 1, RRM domain (G3BP1, Homo sapiens, UniProt Q13283)
Chain of UniProt Q13283 (whole entry, looked up): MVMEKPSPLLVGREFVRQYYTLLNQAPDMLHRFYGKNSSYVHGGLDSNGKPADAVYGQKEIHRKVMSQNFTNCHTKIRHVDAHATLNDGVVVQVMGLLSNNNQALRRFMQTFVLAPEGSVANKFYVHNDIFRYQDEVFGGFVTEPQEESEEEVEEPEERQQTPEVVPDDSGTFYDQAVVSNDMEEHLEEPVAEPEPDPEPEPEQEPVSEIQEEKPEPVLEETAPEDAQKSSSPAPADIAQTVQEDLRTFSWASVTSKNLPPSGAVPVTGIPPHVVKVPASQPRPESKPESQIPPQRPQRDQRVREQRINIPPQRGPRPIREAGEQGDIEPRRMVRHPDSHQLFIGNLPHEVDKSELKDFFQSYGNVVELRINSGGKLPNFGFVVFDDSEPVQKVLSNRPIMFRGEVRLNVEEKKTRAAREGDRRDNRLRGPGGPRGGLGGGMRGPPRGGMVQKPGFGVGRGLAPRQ
Method: RNA Bind-n-Seq
Molecule type: RNA
Sample: in vitro
Concentration: 1 µM
Notes: whole 134-nt RNA, ends assumed
Added: 150 mM KCl
Relative to: input library
Reading: higher = stronger binding
Measurement: log2 enrichment
All sequences stand within: GGGAGUUCUACAGUCCGACGAUC … UGGAAUUCUCGGGUGUCAAGG
CACAGACAACACGCACCCACACAGACACAGAGGGAAGGGGUUGGGAUGGGGACAGGGGGCACAGCAGGGCGGGGUAGGACCCCAGCCCCU: -0.0894
CCUGUGCUACACAUCGUAUGUACCGAAUCGGGGUUUUUUUGGGGAAAGGGGAAAAAGGGGAAAGUAUUAUGUUACGCCGUUCGGAUCUGC: 0.236
UGGCCCUGGUGGCAUGCGGGGAGGAAGAGGUGGCCUCAUAGAUCGUGGUGGUCCCGGUGGAAUGUUCAGAGGUGGCCGUGGUGGAGACAG: 1.15
UAACUUUAGAGGAGGAUCUGAUGGAUAUGGCAGUGGACGUGGAUUUGGGGAUGGCUAUAAUGCGUAUGGAGGAGGACCUGGAGGUGGCAA: -0.275
AGUCCUGUGCUACACAUCGUAUGUACCGAAUCGGAAAAAGGUUUUUUUGGUUUUUGGAAAGUAUUAUGUUACGCCGUUCGGAUCUGCACU: -0.487
CUGUGCUACACAUCGUAUGUACCGAAUCGGGAAAAAAAGGGGAAAAAAAGGGAAAAAAAGGAAAGUAUUAUGUUACGCCGUUCGGAUCUG: 0.127
ACCAUGCAGGUGGGCAUCUUUGGGAAGUGGAAAAAGGGGGGGAUAGGGAGGGGGGUAACACUUUGGGAACAGGUGGUCCCAGGUCGUUUC: -0.531
CAAGUCCUGUGCUACACAUCGUAUGUACCGAAUCGGAAAAAGGAAAAAAAGGAGGAAAGUAUUAUGUUACGCCGUUCGGAUCUGCACUUC: -0.0457
UGGCCCUGGUGGCAUGCGGGGAGGAAGAGGUGGCUUCAUGGAUCGUGGUGGUCCCGGUGGAAUGUUCAGAGGUGGCCGUGGUGGAGACAG: 0.964

Study 2
Target: CEP164, C-terminal peptide (human)
Method: DHFR complementation, deep sequencing
Sample: yeast
Notes: single substitutions, model-inferred values
Relative to: wild type
Reading: higher = weaker binding
Measurement: binding free energy change
Parent: PDZK1, PDZ domain 2 (human); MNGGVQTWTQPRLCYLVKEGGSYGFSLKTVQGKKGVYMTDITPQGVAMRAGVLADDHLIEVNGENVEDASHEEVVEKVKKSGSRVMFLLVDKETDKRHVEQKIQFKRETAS; partner HNRVKVYRF
K79I: -0.376 kcal/mol
K34S: 0.263 kcal/mol
N65G: 0.262 kcal/mol
E67Q: 0.0632 kcal/mol
L13E: -0.115 kcal/mol
D95K: -0.155 kcal/mol
L13Y: -0.0648 kcal/mol
Q31Y: 0.0236 kcal/mol
G3Y: 0.0149 kcal/mol
L13T: -0.0882 kcal/mol
V85H: 1.42 kcal/mol
M38I: 0.285 kcal/mol
H71P: -0.0707 kcal/mol
T9M: 0.0333 kcal/mol
M1N: 0.00602 kcal/mol
I103V: -0.0793 kcal/mol
A50N: 0.269 kcal/mol
R107V: -0.115 kcal/mol
R84P: 1.12 kcal/mol
V85C: 0.477 kcal/mol
K33V: -0.243 kcal/mol
A110H: -0.00727 kcal/mol
L16M: 0.25 kcal/mol
L58E: 1.01 kcal/mol

Study 3
Target: RING finger protein unkempt homolog, zinc fingers 1-6, GST-SBP tag (UNK, Homo sapiens, UniProt Q9C0B0, residues 30-357)
Chain of UniProt Q9C0B0 (30-357, looked up): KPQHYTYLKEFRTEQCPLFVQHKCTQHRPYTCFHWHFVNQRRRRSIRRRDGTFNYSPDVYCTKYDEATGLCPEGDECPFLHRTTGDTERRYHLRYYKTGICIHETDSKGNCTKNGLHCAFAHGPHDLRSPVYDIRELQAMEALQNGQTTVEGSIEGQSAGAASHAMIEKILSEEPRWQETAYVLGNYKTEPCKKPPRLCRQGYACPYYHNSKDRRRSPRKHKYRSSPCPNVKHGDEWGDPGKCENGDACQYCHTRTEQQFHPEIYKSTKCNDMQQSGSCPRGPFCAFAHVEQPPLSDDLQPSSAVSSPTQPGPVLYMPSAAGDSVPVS
Method: RNA Bind-n-Seq
Molecule type: RNA
Sample: in vitro
Concentration: not given
Notes: RNA with constant flanks, human and mouse sites, ends assumed
Relative to: input RNA pool
Reading: higher = stronger binding
Measurement: bound/input enrichment
All sequences stand within: GGGAGUUCUACAGUCCGACGAUC … CAACAGAGGAUUGAGCAUCA
ACACUCAAAGUGGCUGAUUUCGGCCUAAGUAAAGUUUGCUCAGCAUCUGGGCAGAACCCAGAAGAACCUGUCAGUGUAAACAAGUGUUUCCUUUCCACGGCAUGCGGGACGGACUUCUAC: 0.12 ratio
UGUGGGGCCUGGCUUUGGGCAGCUGCUCAUCAUUGAGGAAGUGGCAGGACUUGGAGGAAGUUAUGUGUGAAUGUUGUCAAGUCCUGAAGUCCUAUGAUGCACUGUGGCCCUAGAAAACGA: 0.108 ratio
CCAAAGGAGGUGUGCAUUAAAACAUUUGAUGAUCAUAACACCAGUAUAAUCAGAUUUGUGGGGAGUGGGAUCAAGGCACUUAAUCCCCCGAUGAUUUCAGUGUGCGCUCAACAGUGUCUA: 0.253 ratio
UAUAUCCUCUCCCUCUACCUGUAACAAUUUUGUUUUCUACUGUUAAUUACAUUGUGUAUUUAUAGUUCUAUGCUUACUGUUGUGCAUAUACUGGCAAUAAAACUGUACAUAACAUUACUU: 0.209 ratio
GCACCAAAGUAUCAGAUAGGAGAGAGAAUCCGAGUCAUCCUGGACAUGGAGGAUAAGACUUUAGCUUUUGAGCGUGGGUAUGAGUUCCUGGGGGUUGCCUUUCGAGGACUUCCAAAAGCC: 0.237 ratio
UUUCUUUCCAUAAGAGAUGUGUCUUGCUUAUGAAGUGAUCUAACUUUGGCUAUGCUUGUAGGCCCGUGGGACGUGCAUGUGCACAGUGACUUGGCAAAGGAUCUAGAUGAGAAUGAAGUU: 0.542 ratio
CCGGUUUGUAAAACAUUAAGAGAAAAAAUAGGAUAUUUUAUACAUGUGGUGAGUGGAGAACAGGGUAACUUUAAAUGAAAGUGUAAGGCAAAUUGUAAGCACCACAAGAUAUAUCAGAUU: 0.951 ratio
CUGCAAGACAAGGACAAGGAGGUGGAAGAACUCCUCCAGGAGAUACAAUGUGAAAAGGCUCAAGCAAAGACAGCGUCUGAGCUUUCCAAGUCCAUGGAGUCCAUGCGGGGGCAUUUGCAG: 0.114 ratio

Study 4
Target: Sal-like protein 4, full length isoform A (SALL4, Homo sapiens, UniProt Q9UJQ4, residues 1-1053)
Chain of UniProt Q9UJQ4 (whole entry, looked up): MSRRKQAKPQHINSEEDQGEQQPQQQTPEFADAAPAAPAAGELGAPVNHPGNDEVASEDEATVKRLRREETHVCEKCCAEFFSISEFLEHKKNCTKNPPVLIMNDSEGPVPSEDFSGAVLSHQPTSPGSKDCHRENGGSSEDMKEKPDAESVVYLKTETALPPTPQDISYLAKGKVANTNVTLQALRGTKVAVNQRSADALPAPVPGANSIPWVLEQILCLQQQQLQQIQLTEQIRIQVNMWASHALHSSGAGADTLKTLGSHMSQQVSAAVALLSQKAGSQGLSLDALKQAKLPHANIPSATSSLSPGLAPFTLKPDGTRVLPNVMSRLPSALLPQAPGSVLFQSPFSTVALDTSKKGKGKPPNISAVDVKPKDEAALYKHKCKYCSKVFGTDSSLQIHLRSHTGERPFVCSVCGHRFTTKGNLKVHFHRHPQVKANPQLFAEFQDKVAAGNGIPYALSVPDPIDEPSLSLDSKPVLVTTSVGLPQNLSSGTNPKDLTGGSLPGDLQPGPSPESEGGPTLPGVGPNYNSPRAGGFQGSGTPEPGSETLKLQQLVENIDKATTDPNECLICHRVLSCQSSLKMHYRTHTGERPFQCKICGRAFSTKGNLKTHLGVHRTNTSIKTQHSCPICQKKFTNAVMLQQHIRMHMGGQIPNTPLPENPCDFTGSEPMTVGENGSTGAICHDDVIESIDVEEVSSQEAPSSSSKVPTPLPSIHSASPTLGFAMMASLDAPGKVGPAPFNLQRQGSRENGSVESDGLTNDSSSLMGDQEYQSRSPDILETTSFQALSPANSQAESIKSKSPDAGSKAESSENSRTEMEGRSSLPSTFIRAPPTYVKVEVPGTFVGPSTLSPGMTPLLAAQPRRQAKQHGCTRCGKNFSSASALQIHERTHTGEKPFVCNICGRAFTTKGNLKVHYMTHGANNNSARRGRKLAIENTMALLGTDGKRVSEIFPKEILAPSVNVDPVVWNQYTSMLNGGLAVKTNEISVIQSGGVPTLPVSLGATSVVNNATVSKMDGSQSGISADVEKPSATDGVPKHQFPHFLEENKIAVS
Method: universal PBM
Molecule type: double-stranded DNA, one strand shown
Sample: in vitro
Concentration: 600 nM
Notes: 8-mer, flanks averaged, mean of replicates
Reading: higher = stronger binding
Measurement: E-score
CATCAGGC: -0.17
GAGGCGGC: -0.211
CGTAGTCA: -0.0517
CGCCCTAC: -0.0337
GACTAAGA: -0.00517
GATCAGAA: -0.0425
TATCCCAA: 0.0493
CACCGCAG: -0.106
ACACTAAC: 0.0626
CTAAGAAG: 0.204
CTACTCTA: 0.114
CGACCTGC: -0.167
ACCTCGCG: -0.267
ATTGTGGG: 0.0103
ACGGTAAA: 0.185
AGCGTCTC: -0.268
AGCGGGAT: -0.211
CCGACCAC: -0.16
AACGCACC: -0.183
ACCAGCAA: 0.00417
ACATCCGT: 0.0665
AACCGCTC: -0.157
CGCCGAGC: -0.319
AGCAGACT: 0.0967
AGATTGTC: -0.0474

Some of these lines once more (study 2):
T9M: 0.0333 kcal/mol
M1N: 0.00602 kcal/mol
I103V: -0.0793 kcal/mol
A50N: 0.269 kcal/mol
